Assay results pooled from the literature.
A part holds a random share of what one study measured.
UniProt O00571, sequence (132-607, looked up): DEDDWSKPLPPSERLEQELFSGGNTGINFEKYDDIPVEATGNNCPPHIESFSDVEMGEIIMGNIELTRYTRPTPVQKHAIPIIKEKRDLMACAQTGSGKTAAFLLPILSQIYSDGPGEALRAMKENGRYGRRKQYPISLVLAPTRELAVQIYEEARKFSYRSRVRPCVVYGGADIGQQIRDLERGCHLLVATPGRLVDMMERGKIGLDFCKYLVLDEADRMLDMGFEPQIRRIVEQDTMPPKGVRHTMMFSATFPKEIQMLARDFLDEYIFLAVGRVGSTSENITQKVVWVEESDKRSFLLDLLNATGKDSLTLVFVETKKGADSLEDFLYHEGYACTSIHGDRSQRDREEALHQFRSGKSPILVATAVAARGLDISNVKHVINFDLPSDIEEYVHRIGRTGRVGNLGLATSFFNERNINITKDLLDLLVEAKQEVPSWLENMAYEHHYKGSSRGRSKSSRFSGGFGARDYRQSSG

Series 1
Target: TAR DNA-binding protein 43, full length, His tag (TARDBP, Homo sapiens, UniProt Q13148, residues 1-414)
Method: RNA Bind-n-Seq
Form: RNA
Matrix: in vitro
Tested at: 20 nM
Setting: 6-mer, flanks averaged, single round
With: 150 mM LiCl
Baseline: input library
Reading: higher = stronger binding
| Oligonucleotide | 6-mer enrichment (R) |
| --- | --- |
| CGUUCU | 0.87 |
| GCAGUU | 0.981 |
| AUCUAA | 0.831 |
| GGGUUG | 1.28 |
| GGUCCC | 1.02 |
| UUUGGG | 1.33 |
| UGUGUG | 3.17 |
| UUUGCA | 1.05 |

Series 2
Target: Replicase polyprotein 1ab, main protease (rep, Severe acute respiratory syndrome coronavirus 2, UniProt P0DTD1)
Read-out: enzyme activity
Action: inhibitor
Tested at: 20 µM
Setting: primary screen
| Compound | inhibition |
| --- | --- |
| CC(C)Cc1sc(N)nc1-c1ccc(P(=O)(O)O)o1 | 27.2% |
| CN1CCN(CCCCN2C(=O)CN(/N=C/c3ccc(-c4ccc(Cl)cc4)o3)C2=O)CC1 | 55.2% |
| COCCCOc1ccnc(C[S+]([O-])c2nc3ccccc3[nH]2)c1C (stereo not shown) | 94.3% |
| O=C(O)[C@H]1O[C@@H](Oc2cc3oc(-c4ccccc4)cc(=O)c3c(O)c2O)[C@H](O)[C@@H](O)[C@@H]1O | 67.8% |

Series 3
Target: Fragile X messenger ribonucleoprotein 1, C-terminal low-complexity region (Fmr1, Mus musculus, UniProt P35922)
Method: RNA Bind-n-Seq
Form: RNA
Matrix: in vitro
Tested at: 200 nM
Setting: whole 134-nt RNA, ends assumed
With: 150 mM LiCl
Baseline: input library
Reading: higher = stronger binding
All molecules: 7-deaza-guanosine replaces G
Shared flanks, not repeated: GGGAGUUCUACAGUCCGACGAUC … UGGAAUUCUCGGGUGUCAAGG
| Oligonucleotide | log2 enrichment |
| --- | --- |
| UGGCCCUGGUGGCAUGCGGGGAGGAAGAGAUGGCCUCAUGGAUCGUGGUGGUCCCGGUGGAAUGUUCAGAGGUGGCCGUGGUGGAGACAG | -0.145 |
| UAACUUUAGAGGAGGAUCUGAUGGAUAUGGCAGUGGACGCGGAUUUGGGGAUGGCUAUAAUGGGUAUGGAGGAGGACCUGGAGGUGGCAA | 0.368 |
| UGCCGAUUCGGAAGUCCUUGAGGAGCGUCAGAAGCGGCUUCCCUACGUCCCAGAGCCCUAUUACCCGGAAUCUGGAUGGGACCGCCUCCG | -1.17 |
| CCUCAAGUCCUGUGCUACACAUCGUAUGUACCGAAUCGGGAGGGAGGGUGGGAAAGUAUUAUGUUACGCCGUUCGGAUCUGCACUUCCAG | -1.31 |
| UCCUGUGCUACACAUCGUAUGUACCGAAUCGGGGAAAAAAGGAAAAAAGGAAAAAAGGGAAAGUAUUAUGUUACGCCGUUCGGAUCUGCA | 0.0259 |
| CCUCAAGUCCUGUGCUACACAUCGUAUGUACCGAAUCGGGAGGAGGGGAGGGAAAGUAUUAUGUUACGCCGUUCGGAUCUGCACUUCCAG | -0.24 |
| UCAAGUCCUGUGCUACACAUCGUAUGUACCGAAUCGGGGCCGGGGCCGGGCCGGAAAGUAUUAUGUUACGCCGUUCGGAUCUGCACUUCC | 0.263 |
| UAACUUUAGAGGAGGAUCUGAUGGAUAUGGCAGUGGACGUGGAUUUGGGGAUGGCUAUAAUGGGUAUGGAGGAGAACCUGGAGGUGGCAA | 0.317 |

Series 4
Oligonucleotide: CGGA
Method: RNA Bind-n-Seq
Form: RNA
Matrix: in vitro
Setting: 4-mer, random 30-nt RNA, single round
Baseline: input library
Reading: higher = stronger binding
EIF4A1: Eukaryotic initiation factor 4A-I (EIF4A1, Homo sapiens, UniProt P60842, residues 1-406, full length assumed)
UniProt P60842, sequence (whole entry, looked up): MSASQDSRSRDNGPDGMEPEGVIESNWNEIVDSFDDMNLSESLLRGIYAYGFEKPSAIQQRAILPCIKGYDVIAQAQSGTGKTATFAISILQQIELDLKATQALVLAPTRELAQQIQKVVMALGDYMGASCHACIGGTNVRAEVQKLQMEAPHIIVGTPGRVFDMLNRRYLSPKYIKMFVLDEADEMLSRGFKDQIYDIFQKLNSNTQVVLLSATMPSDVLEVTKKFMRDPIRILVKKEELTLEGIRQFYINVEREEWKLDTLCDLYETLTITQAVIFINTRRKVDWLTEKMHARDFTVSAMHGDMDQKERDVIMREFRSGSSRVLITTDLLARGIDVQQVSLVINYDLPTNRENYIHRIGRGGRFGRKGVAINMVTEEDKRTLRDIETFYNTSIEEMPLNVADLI
| target | tested at | with | 4-mer enrichment |
| --- | --- | --- | --- |
| ATP-dependent RNA helicase DDX3X, helicase core (DDX3X, Homo sapiens, UniProt O00571, residues 132-607) | 90 pmol | 3 µM iPr-DMDA-PatA, 2 mM ADP, 2 mM phosphate | 0.985 fold |
| EIF4A1 | not given | RocA, ADP, phosphate | 1.3 fold |
| EIF4A1 | 15 pmol | 3 µM DMDA-PatA, 2 mM AMP-PNP | 1.12 fold |

Series 5
Cell line: HEK-293T/ACE2
Tested at: 10 µM
Time: 16 h
Baseline: vehicle
| Compound | viability [%] |
| --- | --- |
| CCn1cc(C(=O)O)c(=O)c2ccc(C)nc21 | 98.9 |
| CC(C)(Oc1ccc(C(=O)c2ccc(Cl)cc2)cc1)C(=O)O | 99.6 |
| CC(C)NCC(O)COc1cccc2[nH]ccc12 (stereo not shown) | 102 |

Series 6
Target: Replicase polyprotein 1ab, polymerase (rep, Severe acute respiratory syndrome coronavirus 2, UniProt P0DTD1)
Read-out: enzyme activity
Action: inhibitor
Tested at: 20 µM
| SMILES | inhibition [%] |
| --- | --- |
| CN1C(C(=O)Nc2ccccn2)=C(O)c2ccccc2S1(=O)=O | 26.9 |
| O=C(O)CC/C=C\C[C@H]1CO[C@@H](c2ccccc2Cl)O[C@H]1c1ccccc1O | 10.9 |
| Cc1ccc(=O)n(-c2ccccc2)c1 | -11.2 |
| CCOc1cc2ncc(C#N)c(Nc3ccc(OCc4cccc(F)c4)c(Cl)c3)c2cc1NC(=O)/C=C/CN(C)C | -4.49 |
| O=C(NCCN1CCC2(CC1)C(=O)NCN2c1cccc(F)c1)c1ccc(F)c(F)c1 | -1.23 |
| N[C@@H](Cc1ccc(B(O)O)cc1)C(=O)O | 1.46 |
| Cc1noc(NS(=O)(=O)c2cccc3c(N(C)C)cccc23)c1C | -2.77 |
| CN[C@@H]1C[C@@H](c2ccc(Cl)c(Cl)c2)c2ccccc21 | -0.63 |
| COc1cc(C=O)ccc1O | -3.42 |
| NCCCNCCSP(=O)(O)O | -0.05 |
| Cc1onc(-c2ccccc2)c1-c1ccc(S(N)(=O)=O)cc1 | -1.49 |
| O=C(Nc1cccc(Nc2ncc(Br)c(NCCc3cnc[nH]3)n2)c1)N1CCCC1 | -6.54 |
| CC(=O)Nc1ccc(NC(=S)NC(=O)c2ccc(C(C)(C)C)cc2)cc1 | 0.1 |
| Cc1cc(-c2nc(C(=O)Nc3cn(C4CCOCC4)nc3C(N)=O)co2)ccn1 | -0.78 |
| COc1ccc([C@@H]2CNC(=O)C2)cc1OC1CCCC1 | -1.08 |
| COc1ccccc1N1CCN(CCCCN2C(=O)CCC2=O)CC1 | 3.57 |
| COc1ccc(Cl)c(Nc2nc3ccccc3nc2NS(=O)(=O)c2cccc(NC(=O)C(C)(C)N)c2)c1 | 13.7 |
| COC(=O)C[C@](O)(CCC(C)(C)O)C(=O)O[C@@H]1C(OC)=C[C@]23CCCN2CCc2cc4c(cc2[C@H]13)OCO4 | -1.86 |
| CCc1cnc(N2CCC(c3nc(COc4ccc(-n5cnnn5)cc4)cs3)CC2)nc1 | -1.98 |
| CN1Cc2c(C(=O)OC(C)(C)C)ncn2-c2ccsc2C1=O | 0.95 |
| CN(C)C(=O)c1ccc(S(=O)(=O)c2ccc(NC(=O)[C@@](C)(O)C(F)(F)F)c(Cl)c2)cc1 | -0.77 |
| Cc1ncc(-c2ccnc(Nc3ccc(S(C)(=O)=O)cc3)n2)n1C(C)C | 0.75 |
| CC(=O)Nc1c(I)cc(I)c(C(=O)O)c1I | -10.4 |
| Cc1c(F)cc(C(=O)NC2CC2)cc1-c1c(F)cn2c(C(C)(C)C)nnc2c1F | 4.16 |
| c1coc(CNc2ncnc3[nH]cnc23)c1 | 1.91 |

Other studies, line by line
| Oligonucleotide | target | test | system | setting | how to read | quantity | result |
| --- | --- | --- | --- | --- | --- | --- | --- |
| GAGTCGTCTCGTCAGCACCATAACACCGTAGAGCACTCAGGTC | Sox, HMG box (Pigoraptor chileana) | Spec-seq | double-stranded DNA, one strand shown, in vitro | not given, whole probe, mean of replicates | baseline: not given, lower = stronger binding | relative binding energy | -0.34 ln ratio |

Some of these lines once more (series 2):
| Compound | inhibition |
| --- | --- |
| CC(C)Cc1sc(N)nc1-c1ccc(P(=O)(O)O)o1 | 27.2% |
| O=C(O)[C@H]1O[C@@H](Oc2cc3oc(-c4ccccc4)cc(=O)c3c(O)c2O)[C@H](O)[C@@H](O)[C@@H]1O | 67.8% |
| COCCCOc1ccnc(C[S+]([O-])c2nc3ccccc3[nH]2)c1C (stereo not shown) | 94.3% |
| CN1CCN(CCCCN2C(=O)CN(/N=C/c3ccc(-c4ccc(Cl)cc4)o3)C2=O)CC1 | 55.2% |
